Results collected from several papers.
Numbered parts are unrelated; each lists some results of a single study. Changes are numbered by the printed parent chain.

Series 1
Target: CCNF, cyclin fold, Cln2 fusion (human)
Method: yeast growth competition, sequencing
Matrix: yeast
Notes: strong parent motif
Baseline: not given
Reading: higher = stronger binding
Quantity: normalised enrichment score
Parent: viral docking peptide; KGVKRKLFAEDSS
R5I: 1.01
S12N: 8.06
K6V: 7.68
K6G: 3.96
K6R: 8.77
R5G: -0.00133
V3K: 1.41
A9G: 8.04
L7Y: 0.527
A9P: 8.35
K6W: 1.56
S13A: 7.73
V3T: 7.54
F8V: 0.893
K6T: 6.98
E10H: 7.62
S12H: 7.64
V3R: 1.18

Series 2
Target: RING finger protein unkempt homolog, zinc fingers 1-6, GST-SBP tag (UNK, Homo sapiens, UniProt Q9C0B0, residues 30-357)
Method: RNA Bind-n-Seq
Molecule type: RNA
Matrix: in vitro
Tested at: not given
Notes: RNA with constant flanks, human and mouse sites, ends assumed
Baseline: input RNA pool
Reading: higher = stronger binding
Quantity: bound/input enrichment
Constant ends, left off below: GGGAGUUCUACAGUCCGACGAUC … CAACAGAGGAUUGAGCAUCA
Target sequence (chain): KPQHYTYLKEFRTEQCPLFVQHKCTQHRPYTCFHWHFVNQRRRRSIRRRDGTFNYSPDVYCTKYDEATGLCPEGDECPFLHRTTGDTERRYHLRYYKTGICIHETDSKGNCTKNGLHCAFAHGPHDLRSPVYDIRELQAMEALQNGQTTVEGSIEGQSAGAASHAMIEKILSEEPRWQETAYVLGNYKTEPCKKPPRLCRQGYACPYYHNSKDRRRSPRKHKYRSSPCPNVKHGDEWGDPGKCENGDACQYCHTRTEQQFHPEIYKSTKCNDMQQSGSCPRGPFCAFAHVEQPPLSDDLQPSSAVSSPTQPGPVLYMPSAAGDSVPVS
GGAGCAGAUCCCGAGGCAGGCUUUGCUCAGCCUCCGACGAGGGCUGGCCCUUUGGAAGGCGCCUUCAACAGCCGGACCAGACAGGCCACCAUGACCGAGAAUUCCACGUCCGCCCCUGCG: 0.0608 ratio
AUUUAUAGAGGAGGUUCUAUCAAUGUGCCGACUUACUUUGUGUUUUAUGUUCUGAGAACGAUUACCAGCCAUCUCAAAUUCUGUGGUUGUCAAAGCUCCCCUGGGGUUGUUGCUGGUUGG: 0.285 ratio
AGCAUUUUCCCCUGUUACCUUUAUAUUACACAAUCUGUUCUAUGGUAACAAUACAGAGGAGCGAGCUAGUUUACUGCACCAGUGUUAAUAGGAAAUUUCAGUAUAUCAUGAACAAAUCGA: 1.06 ratio
CUUAGAAUAGGGAAGCUUGCUAUUUUAAAGCUCUUGUAGUGCUUUUCUUUUAAGGGAGAUGUAGUAAAAGGGAAAAUGUAGCUCUUAGUUUACACUUCAAAGAUGUGGGGGUCUUUCAGA: 1.24 ratio
CAUACCAGCUGAAGAGCGACAAGCCGCUGGCAGCCGCGGAUCUCACCGCCGCUCAGGGUUUUUAGAACUUCAGCCAUAAAAAUGGGCAGAAUUUUCCUUGAUCAUAUCGGUGGUACCCGU: 0.145 ratio
CAGGUGGGCCAAUCCAAAAUAACAGUUCUUGGCAGUCCUUCCAUGGGUAUCUAUCUUUGUAGGUAUGCAGAUCUCUUACAGGCUAAUCCUUUGGAGGCUGGGGCAGUAGGCGAUGUUGUU: 0.518 ratio
UAAAGGGAAAAGGCUAAAGAUCCACCCGCGGUUGCAUUUUCUUCUCUGUUAUCACUCUGCUACCUAGACUGUGAGAGGCUUUGCCUUCAGUCAGAUUACAGAGAGCAGGGUCUGACAUUG: 0.0788 ratio
UGUCCCUCUGCCCCAUCCCUCACAUGGGAUGGUCCCUAGGCCAGGCCUCUCUUCUCUGCCUAGCUACCCCUGUGCUACCUCCCACAUGCUGGGUUCUGGAAUGCAGAGCCUAGGCUCUCU: 0.165 ratio

Series 3
Target: vanadate, free oxyanion
Method: microfluidic competitive inhibition
Matrix: in vitro, cell-free expressed
Tested at: not given
Notes: derived from inhibition constants, unchanged parent 676 nM
Reading: lower = stronger binding
Quantity: oxyanion analog dissociation constant
Parent: PafA, mature enzyme, eGFP fusion (Elizabethkingia meningoseptica, UniProt Q9KJX5); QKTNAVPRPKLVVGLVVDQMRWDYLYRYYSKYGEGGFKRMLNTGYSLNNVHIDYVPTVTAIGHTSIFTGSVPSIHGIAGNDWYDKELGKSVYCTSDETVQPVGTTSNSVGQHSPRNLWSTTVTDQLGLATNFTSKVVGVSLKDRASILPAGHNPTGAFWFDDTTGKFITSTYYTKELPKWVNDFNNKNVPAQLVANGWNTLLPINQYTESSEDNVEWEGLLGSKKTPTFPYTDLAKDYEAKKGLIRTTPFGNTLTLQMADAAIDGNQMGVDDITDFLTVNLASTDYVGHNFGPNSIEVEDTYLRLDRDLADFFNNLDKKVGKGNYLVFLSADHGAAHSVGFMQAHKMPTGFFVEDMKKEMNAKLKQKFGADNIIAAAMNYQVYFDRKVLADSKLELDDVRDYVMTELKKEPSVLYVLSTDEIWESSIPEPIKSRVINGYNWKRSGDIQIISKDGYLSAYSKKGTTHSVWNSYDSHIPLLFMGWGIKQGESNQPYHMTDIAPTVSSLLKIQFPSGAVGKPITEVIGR
I485G: 1300 nM
Q381V: 970 nM
G243A: 599 nM
A157V: 603 nM
F291V: 1000 nM
N294V: 790 nM
A362G: 626 nM
G288V: 803 nM
S283G: 633 nM
G110V: 2280 nM
Q206G: 509 nM
A262G: 591 nM
M347G: 700 nM
D84G: 1010 nM
A390V: 872 nM
P72G: 1040 nM
I168V: 609 nM
T521V: 668 nM
Y472V: 889 nM
L256G: 3770 nM
S451G: 755 nM
D311G: 588 nM
L478G: 387 nM
M20G: 452 nM
S457V: 783 nM

Series 4
Target: ABI1, truncated, D143A, DHFR fusion (Arabidopsis thaliana)
Method: DHFR PCA, deep sequencing
Matrix: yeast
Notes: methotrexate growth selection, single substitutions
Added: (+)-ABA 2500 µM
Baseline: wild-type fitted maximum
Reading: higher = stronger binding
Quantity: relative binding score
Parent: PYL1, truncated, DHFR fusion (Arabidopsis thaliana); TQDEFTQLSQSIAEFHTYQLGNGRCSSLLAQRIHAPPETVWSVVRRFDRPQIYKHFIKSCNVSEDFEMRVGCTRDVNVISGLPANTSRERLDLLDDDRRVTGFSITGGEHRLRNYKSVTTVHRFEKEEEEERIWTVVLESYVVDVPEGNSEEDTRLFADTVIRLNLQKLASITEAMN
A35Y: 53%
C72S: 94.2%
S59N: 91.9%
K168L: 85.4%
A30C: 97.5%
R123H: 101%
S26R: 93%
F66T: 92%

Repeated from above (series 1):
A9P: 8.35
K6W: 1.56
S13A: 7.73
V3T: 7.54
